Measurements collected from several papers.
Parts stem from different laboratories: compare values within a part only. Substitutions count along the parent as printed.

Sample 1
Target: ABI1, truncated, D143A, DHFR fusion (Arabidopsis thaliana)
Method: DHFR PCA, deep sequencing
Sample: yeast
Setting: methotrexate growth selection, single substitutions
Together with: (+)-ABA 17 µM
Relative to: wild-type fitted maximum
Reading: higher = stronger binding
Starting sequence: PYL1, truncated, DHFR fusion (Arabidopsis thaliana); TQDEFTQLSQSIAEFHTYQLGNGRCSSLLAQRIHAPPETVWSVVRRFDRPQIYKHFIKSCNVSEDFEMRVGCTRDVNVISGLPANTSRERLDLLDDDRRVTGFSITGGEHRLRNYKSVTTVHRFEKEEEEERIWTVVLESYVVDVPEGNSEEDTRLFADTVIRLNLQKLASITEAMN; partner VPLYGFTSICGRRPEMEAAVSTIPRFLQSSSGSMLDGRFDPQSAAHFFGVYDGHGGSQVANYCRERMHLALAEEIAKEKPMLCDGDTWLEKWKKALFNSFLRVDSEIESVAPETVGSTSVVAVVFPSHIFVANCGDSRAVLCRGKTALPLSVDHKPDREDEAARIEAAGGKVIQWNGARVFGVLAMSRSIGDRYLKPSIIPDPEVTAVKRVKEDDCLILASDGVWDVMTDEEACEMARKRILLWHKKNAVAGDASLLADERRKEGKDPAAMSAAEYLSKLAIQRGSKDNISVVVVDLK
For `L156K`, “relative binding score” read 47.7%.
`D95G` — result for “relative binding score”: -10.2%.
Under “relative binding score”, `V40F` is recorded as -25.8%.
Under “relative binding score”, `R123K` is recorded as 105%.
`S63A` — result for “relative binding score”: 91.1%.
`M68I` — result for “relative binding score”: 84.3%.
For `D48C`, “relative binding score” read 7.55%.
For `E38S`, “relative binding score” read 72.2%.
Under “relative binding score”, `D97R` is recorded as 83.3%.
`R46P`: “relative binding score” 15.1%.
For `P36M`, “relative binding score” read 60.8%.
Under “relative binding score”, `C72E` is recorded as 75.2%.

Sample 2
Target: CCNB2, cyclin fold, Cln2 fusion (human)
Method: yeast growth competition, sequencing
Sample: yeast
Setting: weak parent motif
Relative to: not given
Reading: higher = stronger binding
Starting sequence: CDC25A docking peptide (human); PPHRRRLLFACSP; partner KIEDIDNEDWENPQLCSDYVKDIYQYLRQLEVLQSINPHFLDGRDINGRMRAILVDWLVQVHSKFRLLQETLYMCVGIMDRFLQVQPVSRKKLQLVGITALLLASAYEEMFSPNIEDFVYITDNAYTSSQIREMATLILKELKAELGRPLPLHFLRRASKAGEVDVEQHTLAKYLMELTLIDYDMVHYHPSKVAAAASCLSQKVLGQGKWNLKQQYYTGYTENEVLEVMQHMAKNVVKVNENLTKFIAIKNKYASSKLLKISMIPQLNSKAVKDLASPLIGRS
Under “normalised enrichment score”, `PPHRRRLLAACSP [F9A]` is recorded as 0.847.
Under “normalised enrichment score”, `PPHRRRLLFACST [P13T]` is recorded as 0.893.
`PPHYRRLLFACSP [R4Y]`: “normalised enrichment score” 0.187.
`PPHRRCLLFACSP [R6C]`: “normalised enrichment score” 0.243.
For `PPHRLRLLFACSP [R5L]`, “normalised enrichment score” read 0.35.
`PPHRRRLLHACSP [F9H]`: “normalised enrichment score” 0.508.
Under “normalised enrichment score”, `PPHRRRLLFACGP [S12G]` is recorded as 0.589.
`PPHRRELLFACSP [R6E]`: “normalised enrichment score” -0.017.
For `EPHRRRLLFACSP [P1E]`, “normalised enrichment score” read 0.225.
Under “normalised enrichment score”, `PPHRRRLLQACSP [F9Q]` is recorded as 0.546.
`PPHRRRLEFACSP [L8E]`: “normalised enrichment score” -0.0158.
Under “normalised enrichment score”, `PPHRRRLLFACSS [P13S]` is recorded as 0.476.
Under “normalised enrichment score”, `PPHRRNLLFACSP [R6N]` is recorded as 0.742.
Under “normalised enrichment score”, `PPHRVRLLFACSP [R5V]` is recorded as 0.889.
Under “normalised enrichment score”, `PPHRRRLLFACQP [S12Q]` is recorded as 0.315.
Under “normalised enrichment score”, `PPFRRRLLFACSP [H3F]` is recorded as 0.993.
Under “normalised enrichment score”, `PPRRRRLLFACSP [H3R]` is recorded as 0.784.
Under “normalised enrichment score”, `PRHRRRLLFACSP [P2R]` is recorded as 1.43.

Sample 3
Target: Interferon regulatory factor 5, full length, phosphomimetic (IRF5, Homo sapiens, UniProt Q13568-2, residues 1-514, S451D/S453D/S456D/S462D)
Method: protein-binding microarray
Molecule type: double-stranded DNA, one strand shown
Sample: in vitro
Tested at: 940 nM top
Setting: 60-bp whole probe
Together with: salmon DNA 0.4 mg/ml
Relative to: random background probes
Reading: higher = stronger binding
Constant ends, left off below: GCCTAGCAC … GTCTTGATTCGCTTGACGCTGCTG
For `TTAGGTCTCCATCTCCTTTAGTGCTAG`, “fitted relative affinity” read 0.348 z-score.
`TCAGCTTCTTTTTTATTACTGTGCTAG`: “fitted relative affinity” 1.4 z-score.
For `TCATATATATATTATATAACTGTGCTA`, “fitted relative affinity” read 0.249 z-score.
`GACGGTCTCGGACGGGGGACGTGCTAG` — result for “fitted relative affinity”: 2.04 z-score.
For `AATTAATAACTCGTAGGATCGTGCTAG`, “fitted relative affinity” read -0.0909 z-score.
For `TCATTTCTCTTATTCTAACTGTGCTAG`, “fitted relative affinity” read 1.98 z-score.
Under “fitted relative affinity”, `TTAGGACAGGACTTTCGGTTAGTGCTA` is recorded as 2.71 z-score.
For `TTAGGTCTCCTTTTACTTTAGTGCTAG`, “fitted relative affinity” read 0.779 z-score.
`TGAGGTTTCGGACTGGGTTAGTGCTAG`: “fitted relative affinity” 5.25 z-score.
For `GACGATCGCAGTATCGAGACGTGCTAG`, “fitted relative affinity” read 1.4 z-score.
`TTAGGTTTCAGGTATCGGTTAGTGCTA` — result for “fitted relative affinity”: 6.71 z-score.
`CACCGTCTTATTAAAAAACAGTGCTAG` — result for “fitted relative affinity”: 0.251 z-score.
`GACGGTTTCTGTATCGGGACGTGCTAG`: “fitted relative affinity” 5.22 z-score.
For `GAGGGTTTCGGTATCGGGACGTGCTAG`, “fitted relative affinity” read 11.1 z-score.
Under “fitted relative affinity”, `AGCACTCTTCTTTTTTTTCTGTGCTAG` is recorded as 1.76 z-score.
`TCAGCTTTGCCTTTTGCACTGTGCTAG`: “fitted relative affinity” 0.0346 z-score.
`GACGGACTCGGACTGGGGACGTGCTAG`: “fitted relative affinity” -0.502 z-score.
Under “fitted relative affinity”, `GAAGAACTGGGGACTGGAGACGTGCTA` is recorded as -0.184 z-score.
Under “fitted relative affinity”, `TTAGCTTTCGGGTATCGGTTAGTGCTA` is recorded as 5.6 z-score.

Mixed results
For `PhoQ, residues 284 288 289 292 302 303 SASVAL`, the fold induction was 11.1 (PhoP, residues 12 14 15 18 19 VQALL (Escherichia coli, UniProt P23836); Sort-seq, refers to: YFP reporter; E. coli; PhoQ-PhoP variant library, together with: 10 µM Mg2+; relative to: high Mg2+ state, higher = stronger signaling).

Some of these lines once more (sample 2):
For `PPHRLRLLFACSP [R5L]`, “normalised enrichment score” read 0.35.
`PPHRRRLLHACSP [F9H]`: “normalised enrichment score” 0.508.
Under “normalised enrichment score”, `PPHRRRLLFACGP [S12G]` is recorded as 0.589.
`PPHRRELLFACSP [R6E]`: “normalised enrichment score” -0.017.
For `EPHRRRLLFACSP [P1E]`, “normalised enrichment score” read 0.225.
Under “normalised enrichment score”, `PPHRRRLLQACSP [F9Q]` is recorded as 0.546.
